Measured values pooled from the literature.
Protocols differ between the studies behind these lines.

`Nc1ncc(-c2cc(-c3cnn(CC(F)(F)F)c3)ncc2F)nc1C(=O)NC1CNCC(F)C1` (stereo not shown) has a remaining binding of 47% (NEK10; KINOMEscan; 1 µM; reference: DMSO control).
The binding of `C=CC(=O)Nc1cccc(Cn2ncc3cnc(Nc4cnn(CCOC)c4)nc32)c1` is reported as 100% (human AMPK-alpha2; KINOMEscan; 100 nM; reference: control).
The relative co-enrichment of `C=CC(=O)N1[C@H](c2ccc3c(c2)OCO3)c2[nH]c3ccccc3c2C[C@@H]1C(=O)N1CCN(C)CC1` is reported as 124% (human cyclin E1 N112C-3xFLAG:CDK2; co-IP with TMT proteomics, item: SDHB; concentration not given, P21912; reference: wild type DMSO).
`COC1CN([C@H]2CC[C@H]([C@@]3(C)Oc4c(Cl)cc(C(=O)NCc5c(SC)cc(C)[nH]c5=O)c(C)c4O3)CC2)C1`: “log2 fold change” 0.789 (RNA-seq, item: FAM131B mouse homolog; mouse, HT-1376 xenograft, whole blood; dose not given; reference: vehicle).
Under “lung bacterial load”, `C=C(NC(=O)c1csc(-c2nc3c(cc2O)-c2nc(cs2)C(=O)NC(C(C)O)C(=O)NC(=C(C)OC)c2nc(cs2)C(=O)NC2c4nc(cs4)C(=O)NC(COC(=O)c4c5c6c(cccc6n4O)COC(=O)C(OC4CC(C)(O)C(N(C)C)C(C)O4)C2OC5)c2nc-3cs2)n1)C(N)=O` (stereo not shown) is recorded as 6.18 log CFU/g (Streptococcus pneumoniae; -4, immunocompromised mice, lung infection; 4 mg/kg/day, twice daily, 24 h post-dose).
Under “log2 fold change”, `Cn1ncc2cc(-c3cncc(Cl)c3N3CCC4(CCNC4=O)CC3)ccc21` is recorded as -2.6 (LS174T; gene expression, microarray, item: CIITA mRNA; concentration not given, 24 h; reference: untreated cells).
The IC50 of `CNS(=O)(=O)Nc1nccc(Cc2c(C)c3ccc(Oc4ncccc4F)cc3oc2=O)c1F` is reported as > 1 µM (T98G; cell viability; 7 days).
Under “log2 fold change”, `CN1CCCNC(=O)c2cccc(c2)C(=O)NCCCN(C)CCCNc2cccc3c2C(=O)c2cccc(c2C3=O)NCCC1` is recorded as 0.6 (SAS; RNA-Seq, item: SAFB mRNA; 1 µM, 6 h; reference: untreated cells).
Under “log2 fold change”, `Cc1ncsc1-c1ccc(C(C)NC(=O)C2CC(O)CN2C(=O)C(NC(=O)CCCCCCCCCCN2CCCC(Nc3ncc(Cl)c(Nc4ccccc4S(=O)(=O)C(C)C)n3)C2)C(C)(C)C)cc1` (stereo not shown) is recorded as -1.18 (22Rv1; RNA-seq, item: RNASEL mRNA; concentration not given; reference: DMSO).
The fold regulation of `CCN(CC)CC(=O)Nc1cccc(-n2cc(-c3ccc4ccc(-c5cn(-c6cccc(NC(=O)CN(CC)CC)c6)nn5)cc4c3)nn2)c1` is reported as -1.34 (RCC4; PCR angiogenesis array, item: SERPINE1; 5 x IC50, 4 h, normoxia; reference: untreated).

Repeated from above:
`Nc1ncc(-c2cc(-c3cnn(CC(F)(F)F)c3)ncc2F)nc1C(=O)NC1CNCC(F)C1` (stereo not shown) has a remaining binding of 47% (NEK10; KINOMEscan; 1 µM; reference: DMSO control).
